Results of several laboratories.
Numbered parts are unrelated; each lists some results of a single study. Values joined by “and” are separate records of one study, mostly repeats; a detail may differ.

Block 1
Target: Sodium-dependent dopamine transporter (SLC6A3, Homo sapiens, UniProt Q01959)
UniProt Q01959, sequence (whole entry, looked up): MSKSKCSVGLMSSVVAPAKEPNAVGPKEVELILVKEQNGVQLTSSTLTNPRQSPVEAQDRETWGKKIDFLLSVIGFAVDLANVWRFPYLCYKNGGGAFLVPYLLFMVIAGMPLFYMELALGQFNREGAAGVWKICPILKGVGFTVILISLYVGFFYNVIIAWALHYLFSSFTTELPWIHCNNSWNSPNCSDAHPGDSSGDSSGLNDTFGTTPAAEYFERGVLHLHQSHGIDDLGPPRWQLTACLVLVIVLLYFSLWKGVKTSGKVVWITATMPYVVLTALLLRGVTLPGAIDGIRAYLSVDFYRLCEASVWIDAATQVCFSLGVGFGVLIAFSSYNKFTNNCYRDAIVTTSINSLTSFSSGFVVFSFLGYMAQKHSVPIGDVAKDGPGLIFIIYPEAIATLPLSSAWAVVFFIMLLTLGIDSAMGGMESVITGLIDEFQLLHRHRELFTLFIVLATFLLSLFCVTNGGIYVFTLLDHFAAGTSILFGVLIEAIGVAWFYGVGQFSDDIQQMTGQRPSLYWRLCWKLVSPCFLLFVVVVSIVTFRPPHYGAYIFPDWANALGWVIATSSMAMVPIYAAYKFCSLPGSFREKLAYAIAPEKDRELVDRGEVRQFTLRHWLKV
Read-out: cell-free assay
Tested at: 10 µM
SMILES | inhibition [%]
N#CC1(c2ccccn2)CCN(Cc2cc(C(=O)N3CCCC3)c(=O)n3ccccc23)CC1 | 18.6
NS(=O)(=O)c1cc(NC(=O)C2(c3ccccc3Cl)CC2)ccc1Oc1cccc(Cl)c1 | -12.9
C[C@H](NC(=O)Nc1cc2[nH]ncc2c(CO)n1)c1ccccn1 | 4.79
Cn1cc(Cl)c2c(Oc3c(F)cc(Nc4cc(Cl)nc(N)n4)cc3F)ccnc21 | -11.4
FC(F)(F)c1ccc2c(c1)nc(-c1cccnc1)n2C1CC1 | 15.3
CCC(F)(F)c1cc(N2CCC(S(C)(=O)=O)CC2)nc2sc(C(N)=O)c(N)c12 | 2.35
O=S(=O)(NC1CCC(c2cc(F)ccc2F)(S(=O)(=O)c2ccc(Cl)cc2)CC1)C(F)(F)F (stereo not drawn) | 75.1
CCOc1cc(N2C3COCC2CN(C(=O)[C@H]2C[C@H](O)CN2c2ccc(Cl)cc2)C3)ccc1Cl | 3.92
NS(=O)(=O)c1cc(NC(=O)Cc2ccccc2)ccc1Oc1cccc(Cl)c1 | 37
Cn1nc(C(=O)NCc2ccc(C(=O)O)cc2)cc1-c1ccc2[nH]ccc2c1 | -16.9
NC(=O)c1ccc2nc(-c3ccc(C4(N)CCC4)cc3)c(-c3ccccc3)n2n1 | 40
O=C(Nc1ccc(Oc2ccc(F)cc2)cc1)N1CCc2ncccc2[C@H]1c1ccc(F)cc1 | -22.8
Cn1nc(C(F)(F)F)cc1-c1cnc(N2CCc3cc(S(=O)(=O)Nc4c(F)cc(Cl)cc4F)cc(N4CCCC4=O)c32)nc1 | 14.5
O=C(c1ccc(F)cc1)N1CC(COc2ccc(Br)cc2)(C(=O)O)C1 | 6.07

Block 2
Substance: merbromin
Mode: inhibitor
POLQ helicase domain: DNA polymerase theta, helicase domain (POLQ, Homo sapiens, UniProt O75417)
UniProt O75417, sequence (whole entry, unmodified, looked up): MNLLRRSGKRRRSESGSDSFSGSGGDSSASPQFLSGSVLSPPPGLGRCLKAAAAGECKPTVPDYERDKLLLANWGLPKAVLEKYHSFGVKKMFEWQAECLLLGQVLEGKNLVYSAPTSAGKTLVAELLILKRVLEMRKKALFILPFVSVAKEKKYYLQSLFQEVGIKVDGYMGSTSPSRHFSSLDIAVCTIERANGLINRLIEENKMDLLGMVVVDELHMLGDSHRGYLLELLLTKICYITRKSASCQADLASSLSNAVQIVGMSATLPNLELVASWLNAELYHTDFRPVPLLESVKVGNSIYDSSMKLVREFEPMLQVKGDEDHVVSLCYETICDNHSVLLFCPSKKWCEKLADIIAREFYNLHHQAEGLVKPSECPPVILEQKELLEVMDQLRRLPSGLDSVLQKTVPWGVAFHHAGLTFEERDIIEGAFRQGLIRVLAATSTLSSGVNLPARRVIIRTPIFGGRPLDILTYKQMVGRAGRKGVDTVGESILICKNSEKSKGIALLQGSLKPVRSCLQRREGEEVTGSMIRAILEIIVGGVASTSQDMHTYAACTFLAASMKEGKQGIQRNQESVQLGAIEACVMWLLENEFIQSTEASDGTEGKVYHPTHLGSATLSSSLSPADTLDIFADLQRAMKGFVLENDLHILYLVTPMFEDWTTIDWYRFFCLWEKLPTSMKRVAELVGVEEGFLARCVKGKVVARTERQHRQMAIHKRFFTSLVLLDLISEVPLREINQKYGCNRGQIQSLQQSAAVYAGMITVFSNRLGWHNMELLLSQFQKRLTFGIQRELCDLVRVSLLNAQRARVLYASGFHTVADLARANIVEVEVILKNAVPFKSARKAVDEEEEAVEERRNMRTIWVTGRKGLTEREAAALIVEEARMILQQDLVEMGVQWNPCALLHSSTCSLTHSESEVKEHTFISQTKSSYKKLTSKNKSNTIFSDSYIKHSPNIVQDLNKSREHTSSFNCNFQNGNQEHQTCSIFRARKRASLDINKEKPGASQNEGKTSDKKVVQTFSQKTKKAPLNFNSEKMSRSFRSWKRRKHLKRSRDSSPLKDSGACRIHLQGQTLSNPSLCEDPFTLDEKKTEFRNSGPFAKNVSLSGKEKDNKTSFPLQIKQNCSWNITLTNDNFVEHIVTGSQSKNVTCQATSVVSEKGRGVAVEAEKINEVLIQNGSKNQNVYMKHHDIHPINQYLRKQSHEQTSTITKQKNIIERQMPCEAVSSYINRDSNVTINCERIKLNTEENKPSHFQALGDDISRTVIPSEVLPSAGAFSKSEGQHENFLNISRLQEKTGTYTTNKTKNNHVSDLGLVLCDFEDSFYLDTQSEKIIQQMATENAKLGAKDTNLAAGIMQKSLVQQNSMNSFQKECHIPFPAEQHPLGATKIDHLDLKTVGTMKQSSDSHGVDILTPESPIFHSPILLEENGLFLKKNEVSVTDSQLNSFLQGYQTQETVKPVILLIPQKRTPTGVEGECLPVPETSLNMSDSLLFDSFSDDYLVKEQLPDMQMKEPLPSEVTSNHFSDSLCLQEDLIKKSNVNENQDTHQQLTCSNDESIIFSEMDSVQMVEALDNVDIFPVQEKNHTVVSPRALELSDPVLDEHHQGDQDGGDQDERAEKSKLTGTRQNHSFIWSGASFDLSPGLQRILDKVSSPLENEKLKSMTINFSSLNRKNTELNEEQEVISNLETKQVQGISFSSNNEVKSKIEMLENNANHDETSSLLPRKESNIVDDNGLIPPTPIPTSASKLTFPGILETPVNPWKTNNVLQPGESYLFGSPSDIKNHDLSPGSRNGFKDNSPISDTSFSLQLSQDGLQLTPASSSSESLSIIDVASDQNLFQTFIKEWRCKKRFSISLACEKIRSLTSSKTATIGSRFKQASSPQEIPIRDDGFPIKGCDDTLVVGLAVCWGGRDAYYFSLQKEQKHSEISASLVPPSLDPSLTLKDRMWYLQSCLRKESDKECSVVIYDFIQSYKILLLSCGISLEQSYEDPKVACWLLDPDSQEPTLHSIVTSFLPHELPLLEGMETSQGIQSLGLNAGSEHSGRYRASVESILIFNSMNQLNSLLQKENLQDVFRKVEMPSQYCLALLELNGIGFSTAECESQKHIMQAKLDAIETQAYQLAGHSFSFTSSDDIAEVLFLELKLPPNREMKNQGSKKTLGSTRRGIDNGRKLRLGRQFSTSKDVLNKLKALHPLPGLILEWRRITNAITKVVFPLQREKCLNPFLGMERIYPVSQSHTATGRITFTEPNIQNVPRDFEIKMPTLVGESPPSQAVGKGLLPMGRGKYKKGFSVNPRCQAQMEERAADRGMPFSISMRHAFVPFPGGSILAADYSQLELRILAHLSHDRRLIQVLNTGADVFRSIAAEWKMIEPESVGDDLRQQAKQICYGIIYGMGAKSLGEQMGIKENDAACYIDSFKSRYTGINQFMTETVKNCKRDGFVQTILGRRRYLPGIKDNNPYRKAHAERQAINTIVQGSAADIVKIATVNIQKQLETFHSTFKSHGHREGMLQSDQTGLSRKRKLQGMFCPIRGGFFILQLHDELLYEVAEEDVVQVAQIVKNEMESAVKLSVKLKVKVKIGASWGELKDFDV
target | assay | setting | remaining activity
POLQ helicase domain | ATPase activity | concentration not given, without ssDNA | 37.1% and 36.2%
DNA polymerase theta, ATPase domain (POLQ, Homo sapiens, UniProt O75417) | ATPase activity, ADP-Glo | 77 µM | 11.7%
POLQ helicase domain | enzyme activity | concentration not given, without ssDNA | 36.6%

Block 3
Organism: Vesicular stomatitis virus
Read-out: pseudovirus infection
Technique: FDA-approved drug library screen
Tested at: concentration not given
Notes: VSV-G control pseudotype
Reference: vehicle
SMILES | GFP-positive cells [%]
CCc1cc(C(N)=S)ccn1 | 118
NC(=O)CCC(N)C(=O)O (racemic) | 73.1
CN1CCN(C2=Nc3ccccc3Oc3ccc(Cl)cc32)CC1.O=C(O)CCC(=O)O | 112

Block 4
Cell line: mouse MPNST tumor cells
Technique: high-content nuclear imaging
Item: cell number
Tested at: 10 µM
Time: 12 h
Notes: mean of 2 replicates
Reference: plate mean
Direction: higher = more cells
Structure (SMILES) | nuclei count
CCC(COC(=O)c1cc(OC)c(OC)c(OC)c1)(c1ccccc1)N(C)C (stereo not drawn) | 0.528 z-score
CC12CC(=O)C3C(CCC4=CC(=O)CCC43C)C1CCC2=O (stereo not drawn) | 3.78 z-score
CN1CCc2cc(Cl)c(O)cc2[C@H]2c3ccccc3CC[C@@H]21 | 4.72 z-score

Block 5
SMILES: COc1cc(C(=O)OCCCN2CCCN(CCCOC(=O)c3cc(OC)c(OC)c(OC)c3)CC2)cc(OC)c1OC
Species: male CD-1 mouse
Route: subcutaneous
Dose: dose not given
test system | setting | tissue concentration [ng/mL]
trigeminal ganglion | 4.5 h | 20.2
trigeminal ganglion | 0.1667 h | 116
dorsal root ganglia | 24 h | 1.64
dorsal root ganglia | 8 h | 6.89

Single results of other studies
SMILES | tested on | test system | setting | quantity | result
Clc1ccc(C(OCCN2CCCCC2)c2ccccc2)cc1 (stereo not drawn) | HaCaT |  | 100 µM, 36 h | viability | 4.61%
O=c1c2ccccc2nc(-c2ccccc2)n1-c1ccncc1 |  | mouse, microsomes or S9 | 2 µM, 0.5 h | remaining compound | 98%
O=C1CC[C@@]2(O)[C@H]3Cc4ccc(O)c5c4[C@@]2(CCN3CC2CC2)[C@H]1O5 | HaCaT |  | 100 µM, 36 h | viability | 96%
